Measured values pooled from the literature.
Numbered parts are unrelated; each lists some results of a single study.

Series 1
Target: RING finger protein unkempt homolog, zinc fingers 1-6, GST-SBP tag (UNK, Homo sapiens, UniProt Q9C0B0, residues 30-357)
Sequence of UniProt Q9C0B0 (30-357, looked up): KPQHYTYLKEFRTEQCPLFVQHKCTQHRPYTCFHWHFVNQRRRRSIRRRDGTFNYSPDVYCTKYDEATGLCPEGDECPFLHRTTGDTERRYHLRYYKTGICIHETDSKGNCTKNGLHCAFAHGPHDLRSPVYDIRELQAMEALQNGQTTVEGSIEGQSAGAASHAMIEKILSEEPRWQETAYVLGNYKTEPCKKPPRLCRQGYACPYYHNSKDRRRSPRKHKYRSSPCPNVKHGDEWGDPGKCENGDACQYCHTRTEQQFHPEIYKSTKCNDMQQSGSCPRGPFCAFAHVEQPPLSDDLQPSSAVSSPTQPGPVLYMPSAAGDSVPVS
Technique: RNA Bind-n-Seq
Form: RNA
Sample: in vitro
Tested at: not given
Notes: RNA with constant flanks, human and mouse sites, ends assumed
Reference: input RNA pool
Reading: higher = stronger binding
For `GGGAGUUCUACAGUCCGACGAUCGCUGGAUAUGGAGACAUUUACCUCAAUGCUGGUCCCAUGUUGUUUAGUGGAGACAAGGACCAUAGAUUUGAAUAUAGCCAUGGUCCUAUUGCAGUCCUGGCAAACAGCAGUGACCCUUCCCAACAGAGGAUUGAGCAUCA`, the bound/input enrichment was 0.194 ratio.
`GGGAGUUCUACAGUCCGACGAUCAGUCUGGCCGUACCACUGUGGCUGCUGGCAGCAUCUCUGCUCUGCCUUCUCAGCAAAUGUUAAUAGAAUAAAAAUUUAAAAAUAAUUUAAAAAACACACAAAAAUGCGUCACACAGAAUACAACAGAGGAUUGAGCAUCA` has a bound/input enrichment of 6.03 ratio.
With `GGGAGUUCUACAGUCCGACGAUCAUAGCCCACUUUAAGCAGUAUGUUCCUAUCAUUGAAAAAGAAGCAAAGGAAUACUUUCAAAGUUGGGGAGAAAGCGGAGAAAGAAAUGUGUUUGAAGCACUGUCUGAGCUCAUAAUUUUGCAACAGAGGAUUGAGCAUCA` the bound/input enrichment was 0.21 ratio.
`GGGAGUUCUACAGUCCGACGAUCAACCAUCAGGAAGGAACAUCUAGUGAUGAUGAACUGCCUUCAGCAGAGAUGAUUGACUUCCAAAAAAGCCAAGGUGACAUUUUACAGAAACAGAAGAAAGUUUUUGAAGAAGUGCAAGAUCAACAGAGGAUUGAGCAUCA` has a bound/input enrichment of 0.12 ratio.
For `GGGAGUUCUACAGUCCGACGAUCAGCCUCCAGAAGACCCCUACAAUGAGAGGCCUGGGGUCUGCAAGUCGCUGCUAGAAUUUUUUAAAGAAUGCAGCACCAACACAGAUUUGUAAGGUCCCUGGGCGCAUGCUGAACGCGCGUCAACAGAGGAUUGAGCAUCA`, the bound/input enrichment was 0.219 ratio.

Series 2
Target: Sal-like protein 4, full length isoform A (SALL4, Homo sapiens, UniProt Q9UJQ4, residues 1-1053)
Sequence of UniProt Q9UJQ4 (whole entry, looked up): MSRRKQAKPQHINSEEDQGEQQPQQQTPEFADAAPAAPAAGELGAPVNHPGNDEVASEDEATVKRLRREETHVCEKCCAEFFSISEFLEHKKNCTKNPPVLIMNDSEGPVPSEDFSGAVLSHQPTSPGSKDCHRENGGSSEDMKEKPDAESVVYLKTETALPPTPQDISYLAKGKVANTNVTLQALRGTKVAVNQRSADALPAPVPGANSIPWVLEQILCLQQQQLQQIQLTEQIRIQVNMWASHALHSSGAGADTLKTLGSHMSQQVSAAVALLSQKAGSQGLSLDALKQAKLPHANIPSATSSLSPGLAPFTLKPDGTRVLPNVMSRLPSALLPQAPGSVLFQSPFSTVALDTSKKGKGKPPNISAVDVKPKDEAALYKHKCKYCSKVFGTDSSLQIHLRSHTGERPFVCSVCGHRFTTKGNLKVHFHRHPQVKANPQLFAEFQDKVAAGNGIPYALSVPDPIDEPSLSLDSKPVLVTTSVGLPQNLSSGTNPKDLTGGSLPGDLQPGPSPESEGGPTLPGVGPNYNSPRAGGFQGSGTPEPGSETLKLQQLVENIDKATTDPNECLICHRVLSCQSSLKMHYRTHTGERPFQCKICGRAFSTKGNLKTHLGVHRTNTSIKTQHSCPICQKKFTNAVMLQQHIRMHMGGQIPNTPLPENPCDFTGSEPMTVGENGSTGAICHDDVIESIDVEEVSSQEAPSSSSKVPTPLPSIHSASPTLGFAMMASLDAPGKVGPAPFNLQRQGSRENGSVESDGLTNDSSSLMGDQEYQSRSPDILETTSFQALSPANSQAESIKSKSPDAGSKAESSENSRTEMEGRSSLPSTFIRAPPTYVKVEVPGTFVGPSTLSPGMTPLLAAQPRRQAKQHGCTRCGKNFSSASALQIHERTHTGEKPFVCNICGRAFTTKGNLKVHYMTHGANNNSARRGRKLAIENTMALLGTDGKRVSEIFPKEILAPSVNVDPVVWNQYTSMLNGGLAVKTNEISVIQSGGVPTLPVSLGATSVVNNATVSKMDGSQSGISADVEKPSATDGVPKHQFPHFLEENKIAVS
Technique: universal PBM
Form: double-stranded DNA, one strand shown
Sample: in vitro
Tested at: 600 nM
Notes: 8-mer, flanks averaged, mean of replicates
Reading: higher = stronger binding
The E-score of `CCGGGCAG` is reported as -0.417.
`AGTCGTTA` has an E-score of 0.11.
The E-score of `CGCGACAA` is reported as 0.0168.
`CACAACGC` has an E-score of -0.129.
`CCTGCCGA` has an E-score of -0.21.
With `AGTTTTCA` the E-score was 0.186.
With `AAACTTAA` the E-score was 0.276.

Series 3
Target: Interferon regulatory factor 5, full length, phosphomimetic (IRF5, Homo sapiens, UniProt Q13568-2, residues 1-514, S451D/S453D/S456D/S462D)
Technique: protein-binding microarray
Form: double-stranded DNA, one strand shown
Sample: in vitro
Tested at: 940 nM top
Notes: 60-bp whole probe
Added: salmon DNA 0.4 mg/ml
Reference: random background probes
Reading: higher = stronger binding
Constant ends, left off below: GCCTAGCACT … GTGCTAGGTCTTGATTCGCTTGACGCTGCTG
`CACTCGTCTCTATCAAACT` — result for “fitted relative affinity”: 1.44 z-score.
Under “fitted relative affinity”, `TAAATCTCAGTATCGATTA` is recorded as 5.3 z-score.
Under “fitted relative affinity”, `TAGGTATCCTTATCCTTTG` is recorded as 0.267 z-score.
`CAACTATTGCTTCCTCACT` — result for “fitted relative affinity”: 0.561 z-score.
`GGACTGCACAAGGGCCAGT`: “fitted relative affinity” -0.578 z-score.
`TAGATATCAGTCTCGATTT` — result for “fitted relative affinity”: 2.76 z-score.
Under “fitted relative affinity”, `TAGGACTGCTTATCCGTTA` is recorded as -0.268 z-score.

Other studies, line by line
`PhoQ, residues 284 288 289 292 302 303 TLMATV` gave a fold induction of 2.18 (PhoP, residues 12 14 15 18 19 AQCLL (Escherichia coli, UniProt P23836); Sort-seq, refers to: YFP reporter; E. coli; PhoQ-PhoP variant library, added: 10 µM Mg2+; reference: high Mg2+ state, higher = stronger signaling).

Some of these lines once more (series 2):
`CACAACGC` has an E-score of -0.129.
The E-score of `CCGGGCAG` is reported as -0.417.
The E-score of `CGCGACAA` is reported as 0.0168.
